Published values of several laboratories.
Numbers after ± are the reported error.

The Cmax of `CC(C)=CCC[C@](C)(O[C@@H]1O[C@H](CO)[C@@H](O)[C@H](O)[C@H]1O)[C@H]1CC[C@]2(C)[C@@H]1[C@H](O)C[C@@H]1[C@@]3(C)CC[C@H](O[C@@H]4O[C@H](CO)[C@@H](O)[C@H](O)[C@H]4O)C(C)(C)[C@@H]3CC[C@]12C` is reported as 2.01 ± 1.14 ng/mL (LC-MS/MS; healthy female volunteers, serum; oral, 3 g fermented red ginseng).
The Cmax of `COc1cc(OC)c(/C=C/S(=O)(=O)Cc2ccc(OC)c(NCC(=O)O)c2)c(OC)c1` is reported as 430 ± 260 ng/mL (cancer patients, phase I, plasma; oral, 140 mg twice daily, day 21 cycle 1).
`C[C@H]1Oc2cc(cnc2N)-c2c(nn(C)c2C#N)CN(C)C(=O)c2ccc(F)cc21` has a Cmax of 377 ng/mL (healthy adults; oral tablet, 100 mg single dose, adjusted geometric mean, together with: rabeprazole 20 mg).
For `O=C1CCc2ccc(OCCCCN3CCN(c4cccc(Cl)c4Cl)CC3)cc2N1`, the Cmax was 18.1 ± 3 ng/mL (healthy Japanese men, CYP2D6 IM, plasma; oral, 3 mg aripiprazole single, together with: paroxetine 20 mg/day).
For `Cc1ccc(Sc2ccccc2N2CCNCC2)c(C)c1`, the Cmax was 1.8 ng/mL (healthy men, plasma; oral, 5 mg once daily, fed, day 1).
The Cmax of `CC(C)(Sc1ccncc1-c1ccc(C#N)c2ccccc12)C(=O)O` is reported as 21.9 ng/mL (healthy Japanese male subjects, plasma; oral, 10 mg single dose, day 1, fasted, geometric mean).
With `Nc1ncc(-c2cnn(CCO)c2)c2scc(-c3ccc(NC(=O)Nc4cccc(F)c4)cc3)c12` the Cmax was 780 ± 550 ng/mL (patient, plasma; oral, 480 mg twice weekly, day 15, trial).
`CN1CC[C@H](c2c(O)cc(O)c3c(=O)cc(-c4ccccc4Cl)oc23)[C@H](O)C1` gave a Cmax of 1950 nM (patients with advanced solid tumours, plasma; intravenous infusion, 70 to 80 mg/m^2, together with: FOLFOX).
The Cmax of `Cn1cnc2c(F)c(Nc3ccc(Br)cc3Cl)c(C(=O)NOCCO)cc21` is reported as 863 ng/mL (healthy subjects, plasma; oral, 50 mg single dose, LS mean).
The Cmax of `CN1C(=O)[C@@H](NC(=O)c2nnc(Cc3ccccc3)[nH]2)COc2ccccc21` is reported as 646 ng/mL (healthy men, plasma; oral, 60 mg once daily, day 14, geometric mean).
`CCOc1ccc2cc(-c3nn(CC4CCN(C)CC4)c4ncnc(N)c34)ccc2c1` has a Cmax of 3100 ± 1000 nM (LC-MS/MS; Neospora caninum-infected pregnant sheep, plasma; oral, 100 mg/kg, after dose 5).
For `Cc1ccccc1-c1cc(N2CCN(C)CC2)ncc1N(C)C(=O)C(C)(C)c1cc(C(F)(F)F)cc(C(F)(F)F)c1`, the Cmax was 534 ng/mL (healthy volunteers, plasma; oral, 300 mg single dose, mean, together with: palonosetron 0.50 mg fixed combination).
`C[C@@H](N)c1cc(Cl)ccc1Cn1c(=S)[nH]c(=O)c2[nH]ccc21` has a Cmax of 37.4 nM (healthy Japanese volunteers, plasma; oral, 5 mg once daily, day 10, geometric mean).
For `C[C@@H](O)[C@H]1C(=O)N2C(C(=O)O)=C(S[C@@H]3CN[C@H](C(=O)N(C)C)C3)[C@H](C)[C@H]12`, the Cmax was 3000 ng/mL (microdialysis; pig (Danish Landrace), cortical bone; iv infusion, 1000 mg over 10 min, together with: vancomycin co-administered).
`NC(=O)c1cnc2[nH]ccc2c1N[C@@H]1[C@@H]2CC3C[C@H]1C[C@@](O)(C3)C2` gave a Cmax of 649 ng/mL (healthy Japanese men, plasma; oral, 200 mg, single dose fasted).
For `N[C@@H](CC(=O)N1CCn2c(nnc2C(F)(F)F)C1)Cc1cc(F)c(F)cc1F`, the Cmax was 443 ± 96.6 ng/mL (healthy Korean subjects, plasma; oral, 100 mg single dose, ABCB1 G2677T/A TA).
`Cc1ccnc2c1NC(=O)c1cccnc1N2C1CC1` gave a Cmax of 594 ng/mL (olive baboon (Papio anubis), female, non-pregnant, serum; oral, 10 mg/kg, solution, single dose).
